Measured values from different studies.
± gives the spread as reported.
Cell line: A549

For COc1c(C)c(OC(=O)c2ccccc2)c(C)c(O)c1C(=O)/C=C/c1ccccc1, the selectivity index was over 1.21 (baseline: CL over A549).
COc1cc(-c2cccc(Cc3ncnc4cc(OC)c(OC)cc34)c2)ccc1CO gave an inhibition of 40% (mitochondrial oxygen consumption, Seahorse XF96; 10 µM).
CCCCN1CCN(c2ccc3[nH]c(-c4ccc5[nH]c(-c6cc(OC)c(OC)c(OC)c6)nc5c4)nc3c2)CC1 gave a growth percent of 105% (SRB; 10 µM, 48 h).
The inhibition of COc1ccc2nccc(Cc3cccc(-c4ccc(C5COC5)cc4)c3)c2c1 is reported as 95% (mitochondrial oxygen consumption, Seahorse XF96; 10 µM).
COc1ccc(Oc2ccc(CN(C)Cc3cnc4nc(N)nc(N)c4n3)cc2)cc1 has a cell growth of 15.3 ± 36.4% (CellTiter-Glo; 10 µM; 100 none, 0 cytostatic, -100 cytotoxic).
With COc1cccc2c1C(=O)c1c(O)c3c(c(O)c1C2=O)C[C@@](O)(C(=O)CO)C[C@@H]3O[C@H]1C[C@H](N)[C@H](O)[C@H](C)O1 the EC50 was 4.62 µM (cell viability, MTT; 48 h).
For C/C(=N\O)c1ccc(-c2ccc(O)c(C)c2)c(Cl)c1O, the 2-NBDG uptake was 33% (fluorescence imaging; 30 µM, with: 50 µM 2-NBDG, 15 min; baseline: DMSO).
CCCCCCCCCCCCCCCCCCOc1ccc(CC(=O)OCC[N+]2(C)CCOCC2)cc1 has a growth inhibition of under 0% (SRB; 10 µM).
For O=C(NOC[C@H](O)CO)c1ccc(F)c(F)c1Nc1ccc(I)cc1F, the viability was 69% (0.07813 µM, 72 h).
CCn1cc(-c2cc(Cn3ccoc3=N)cc3c2CCN([C@@H](C)c2cc(OC)ccn2)C3=O)c(C(F)(F)F)n1 gave an EC50 of over 30 µM (cell growth, inhibitor; 120 h).
Under “reduction of wound healing rate”, Cc1nc(N(Cc2ccccc2)c2ccc3c(c2)/C(=C/c2ccccc2)C(=O)N3Cc2ccccc2)c2ccccc2n1 (mixture of isomers) is recorded as 48.7% (1.0 µM, 24 h; baseline: untreated).
COc1cc(C2=CCCc3c2ccc(OC)c3OCc2ccc([N+](=O)[O-])s2)cc(OC)c1OC gave an IC50 of 0.5 ± 0.08 µM (4 h, anoxic).
With COc1c(C)c(OC)c(C(=O)/C=C/c2ccccc2)c(OC)c1C the selectivity index was 0.82 (baseline: CL over A549).
With Cc1cc(NS(=O)(=O)c2ccc(NC(=O)/C(C#N)=C/c3ccc(N4CCCC4)cc3)cc2)no1 the selectivity index was over 1.11 (cytotoxicity, MTT; baseline: HSF over A549 IC50).
With COc1ccc2c(Cc3ccc(OC)c(OC)c3)ncnc2c1 the inhibition was 29% (mitochondrial oxygen consumption, Seahorse XF96; 10 µM).
With CCCN1CCN(c2ccc3[nH]c(-c4ccc5[nH]c(-c6ccc(OCC)c(OCC)c6)nc5c4)nc3c2)CC1 the growth percent was -50.2% (SRB; 10 µM, 48 h).
COCCOCCOCc1n(Cc2ccc3ccccc3n2)c2ccccc2[n+]1Cc1ccc2ccccc2c1.[Br-] has a TGI of 10.6 µM (NCI60 five-dose).
With COc1ccc(Cc2nccc3cc(C4COC4)ccc23)cc1OC the inhibition was 91% (mitochondrial oxygen consumption, Seahorse XF96; 10 µM).
For ClCc1ccnc(-c2cc(CCl)ccn2)c1.F[P-](F)(F)(F)(F)F.[Ir+3].[c-]1ccccc1-c1ccccn1.[c-]1ccccc1-c1ccccn1, “number of regulated probe sets” read 1640 (microarray; 3 µM, 24 h, fold change above 2).
Cn1cnc2c(F)c(Nc3ccc(Br)cc3F)c(C(=O)NOCCO)cc21 has a viability of 100% (0.03906 µM, 72 h).
For COc1ccc2c(c1)NC(=O)CN2c1nc(C)nc2ccccc12, “cells in G0/G1 phase” read 56.6% (flow cytometry; 0.001 µM, 24 h).
Nc1n[n+]([O-])c2ccccc2[n+]1[O-] gave an IC50 of 6.58 µM (4 h, anoxic).
With Cc1n(Cc2ccc3ccccc3c2)c2ccccc2[n+]1Cc1ccc2ccccc2c1.[Br-] the TGI was 3.4 µM (NCI60 five-dose).
With COc1cc2ccnc(C(=O)c3cccc4ccccc34)c2cc1OC the inhibition was 16% (mitochondrial oxygen consumption, Seahorse XF96; 10 µM).
With COc1ccc2c(c1NC(=O)OCc1ccc([N+](=O)[O-])s1)CCC=C2c1cc(OC)c(OC)c(OC)c1 the IC50 was 10.1 ± 6.35 µM (cell growth, SRB; 4 h exposure then 120 h oxic, oxic exposure then drug removal).
The cell growth of NC(=O)C1CCN(C(=O)c2ccc(NCc3cnc4nc(N)nc(N)c4n3)cc2)CC1 is reported as -1.03 ± 4.03% (CellTiter-Glo; 10 µM; 100 none, 0 cytostatic, -100 cytotoxic).
O=C1/C(=C/c2ccc3ccccc3c2O)NC(=S)N1c1ccccc1 has a selectivity index of 2 (MTT; baseline: BJ1 over A549).
O=c1ccn(Cc2cn(-c3cc4ccccc4oc3=O)nn2)c(=O)[nH]1 has a growth of 98.6% (NCI60 single dose; 10 µM).
For COc1cc2ncnc(Cc3cccc(-c4ccc(CO)cc4)c3)c2cc1OC, the inhibition was 30% (mitochondrial oxygen consumption, Seahorse XF96; 10 µM).
For CCCOC(=O)C1CCN(C(=O)c2ccc(N(C)Cc3cnc4nc(N)nc(N)c4n3)cc2)CC1, the cell growth was -2.32 ± 13.2% (CellTiter-Glo; 10 µM; 100 none, 0 cytostatic, -100 cytotoxic).
The inhibition of COc1cc(-c2cccc(Cc3ncnc4cc(OC)c(OC)cc34)c2)ccn1 is reported as 17% (mitochondrial oxygen consumption, Seahorse XF96; 10 µM).
With CCOC(=O)C1CCN(C(=O)c2ccc(N(C)Cc3cnc4nc(N)nc(N)c4n3)cc2)CC1 the cell growth was 7.47 ± 7.5% (CellTiter-Glo; 10 µM; 100 none, 0 cytostatic, -100 cytotoxic).
Cc1cc(=O)[nH]c(=O)n1Cc1cn(-c2c3ccccc3nc3ccccc23)nn1 gave a growth of 92.3% (NCI60 single dose; 10 µM).
The IC50 of COc1ccc2c(c1NC(=O)OCc1ncc([N+](=O)[O-])n1C)CCC=C2c1cc(OC)c(OC)c(OC)c1 is reported as over 93 µM (4 h, anoxic).
The growth of O=C1NC(c2ccccc2)(c2ccccc2)C(=O)N1Cc1cn(-c2c3ccccc3nc3ccccc23)nn1 is reported as 78.2% (NCI60 single dose; 10 µM).
With CCCCN1CCN(c2ccc3[nH]c(-c4ccc5[nH]c(-c6ccc(OCC)cc6)nc5c4)nc3c2)CC1 the growth percent was 86.5% (SRB; 10 µM, 48 h).
For COC(=O)C1CCN(C(=O)c2ccc(N(CCCO)Cc3cnc4nc(N)nc(N)c4n3)cc2)CC1, the cell growth was 157% (CellTiter-Glo; 10 µM; 100 none, 0 cytostatic, -100 cytotoxic).
c1ccc(-c2cccc(Cc3ccnc4ccccc34)c2)cc1 gave an inhibition of 93% (mitochondrial oxygen consumption, Seahorse XF96; 10 µM).
For CCCCN1CCN(c2ccc3nc(-c4ccc5nc(-c6cc(OC)ccc6OC)[nH]c5c4)[nH]c3c2)CC1, the growth percent was 105% (SRB; 10 µM, 48 h).
COc1ccc2c(c1NC(=O)OC(C)c1ccc([N+](=O)[O-])s1)CCC=C2c1cc(OC)c(OC)c(OC)c1 (centres unmarked) has an IC50 of 6.79 ± 0.77 µM (cell growth, SRB; 4 h exposure then 120 h oxic, oxic exposure then drug removal).
For C#CCN(Cc1cnc2nc(N)nc(N)c2n1)c1ccc(C(=O)N2CCC(C(=O)OC)CC2)cc1, the cell growth was 104 ± 4.42% (CellTiter-Glo; 10 µM; 100 none, 0 cytostatic, -100 cytotoxic).

Excerpt of the above:
COc1cc(C2=CCCc3c2ccc(OC)c3OCc2ccc([N+](=O)[O-])s2)cc(OC)c1OC gave an IC50 of 0.5 ± 0.08 µM (4 h, anoxic).
The growth of O=C1NC(c2ccccc2)(c2ccccc2)C(=O)N1Cc1cn(-c2c3ccccc3nc3ccccc23)nn1 is reported as 78.2% (NCI60 single dose; 10 µM).
For C#CCN(Cc1cnc2nc(N)nc(N)c2n1)c1ccc(C(=O)N2CCC(C(=O)OC)CC2)cc1, the cell growth was 104 ± 4.42% (CellTiter-Glo; 10 µM; 100 none, 0 cytostatic, -100 cytotoxic).
c1ccc(-c2cccc(Cc3ccnc4ccccc34)c2)cc1 gave an inhibition of 93% (mitochondrial oxygen consumption, Seahorse XF96; 10 µM).
Under “reduction of wound healing rate”, Cc1nc(N(Cc2ccccc2)c2ccc3c(c2)/C(=C/c2ccccc2)C(=O)N3Cc2ccccc2)c2ccccc2n1 (mixture of isomers) is recorded as 48.7% (1.0 µM, 24 h; baseline: untreated).
